Measured values of several laboratories.
Protocols differ between the studies behind these lines. “And” joins repeats or separate records; there may be more than shown. ± marks the error that the study gave.

Compound	tested on	test	conditions	scale	endpoint	result
C#CCCCC(F)/C=C/C(=O)NC1(c2ccc(-c3nc4ccn5c(=O)[nH]nc5c4cc3-c3ccccc3)cc2)CCC1 (centres unmarked)	MDA-MB-468	flow cytometry, PI staining	EC60 concentration, 72 h, DMSO 22.2		cells in S phase	23%
Cc1ncsc1-c1ccc(C(C)NC(=O)C2CC(O)CN2C(=O)C(NC(=O)CCCCCCCCCCN2CCCC(Nc3ncc(Cl)c(Nc4ccccc4S(=O)(=O)C(C)C)n3)C2)C(C)(C)C)cc1 (centres unmarked)	22Rv1	RNA-seq, item: TMEM125 mRNA	concentration not given	baseline: DMSO	log2 fold change	-1.04
O=C(C[Se]C(=O)C12CC3CC(CC(C3)C1)C2)Nc1cccc(C(F)(F)F)c1	NCI60 colon subpanel	NCI60 five-dose screen			mean TGI	26800 nM
O=C(N1CCCC1)n1cc(-c2ccc(-c3ccccc3)cc2)nn1	mouse T cells	N-terminal labelling proteomics, item: LARP1 N-terminal peptides	0.001 µM, 6 h	baseline: DMSO	SILAC ratio	1.21
O=C(Nc1nnc2c1c(-c1ccc(Cl)cc1)nc1sc(=Cc3ccco3)c(=O)n12)c1ccccc1 (mixture of isomers)	SN12C	SRB	10 µM, NCI60 single-dose screen	baseline: untreated	cell growth	41.1%
CC(C)c1ccc(N(C)c2ccc3c(c2)OCC[C@H]3CNc2cnccc2C(=O)O)cc1	Calu-6	cell viability, CellTiter-Glo	7 days		IC50	14.9 nM
N#Cc1cccc(/C=C/C(=O)c2ccc(O)cc2)c1	U-87 MG	item: SORBS1	concentration not given	baseline: untreated	fold change	41.5
CCn1nc(Cl)c2c1-c1cnc(N)c(c1)O[C@H](C)c1cc(F)ccc1-c1nn(C)cc1C2	NCI-H3122 (EML4-ALK variant 1)	cell viability			IC50	2.25 nM
COc1cc(N2CCN(C(=O)C3CCCN3)CC2)ccc1Nc1ncc(Cl)c(Nc2ccccc2P(C)(C)=O)n1 (centres unmarked)	Ba/F3 EML4-ALK	annexin V flow cytometry	concentration not given, 1 h		late apoptotic cells	3.1%
CNC(=O)CCN(Cc1ccc(C(F)F)cc1)C(=O)c1cc2c(OC)ccc(-c3ccc(=O)n(C)c3)c2s1	murine AML cells	BRD4 chromatin occupancy, ChIP-seq, item: Ift57 locus	concentration not given	baseline: DMSO	log2 fold change	-3.23
COc1ccc2c(c1)c(CC(=O)[Se]CC(=O)Nc1cccc(C(F)(F)F)c1)c(C)n2C(=O)c1ccc(Cl)cc1	NCI60 colon subpanel	NCI60 five-dose screen			mean TGI	12300 nM
NC(Cc1ccccc1)C(=O)N1CC(=Cc2ccc(Cl)c(Cl)c2)C(=O)C(=Cc2ccc(Cl)c(Cl)c2)C1 (centres unmarked)	BRD4-HiBiT cells	BRD4 degradation rescue, inhibitor	2 h, 50% degradation rescued, together with: dBET6 500 nM		EC50	1140 nM
Cc1ccc(-n2cc(CSc3nc4ccccc4n3Cc3cn(-c4ccc(C)cc4)nn3)nn2)cc1	MDA-MB-231	MTT	15.6 ppm		viability	24.3%
Cn1ncc(-c2ccc3c(=O)[nH]nc(CN)c3c2)c1-c1c(F)c(Cl)cc(OC2CC2)c1C#N	LN-18	cell viability, inhibitor, CellTiter-Glo	120 h, baseline-subtracted		IC50	20 nM
Cn1ncc2cc(-c3cncc(Cl)c3N3CCC4(CCNC4=O)CC3)ccc21	LS174T	gene expression, microarray, item: CMBL mRNA	concentration not given, 24 h	baseline: untreated cells	log2 fold change	2.81
COC(=O)c1cc(NC2=NC(=O)C(=Cc3ccc(N(C)C)cc3)S2)ccc1OC(C)=O	MCF7	item: RAD51AP1 mRNA	0.81 µM (IC50), 24 h	baseline: DMSO	fold change	0.288
CC(C)n1nc(C(F)F)cc1C(=O)Nc1ccc([C@H]2[C@@H](O)CCCc3cncn32)c(-c2ccccc2)c1	BRD4-HiBiT cells	BRD4 degradation rescue, inhibitor	2 h, together with: dBET6 500 nM		EC50	62.2 nM
CCN(C(=O)c1cc(F)ccc1Oc1nncnc1N1CCC2(C1)CN([C@H](CCCN(C)CCOC)C(C)C)C2)C(C)C	UO-31	cell growth or viability	7 days		GI50	> 10000 nM
O=C(C[Se]C(=O)c1ccc2ccccc2n1)Nc1cccc(C(F)(F)F)c1	NCI60 colon subpanel	NCI60 five-dose screen			mean TGI	11300 nM
CN(C)CCN1CCN(c2ccc3nc(-c4ccc5nc(-c6ccc(C(F)(F)F)cc6)[nH]c5c4)[nH]c3c2)CC1	LOX IMVI	cell growth, NCI-60 SRB	10 µM, 48 h		growth percent	32.2%
CC[C@H](C)C(=O)O[C@H]1C[C@@H](C)C=C2C=C[C@H](C)[C@H](CC[C@@H]3CC=CC(=O)O3)[C@H]21	T84	western blot, item: CFTR	concentration not given, 2 h		protein level	no effect

Compound	tested on	test	conditions	scale	endpoint	result
COc1ccc(CC[C@H]2OC(=O)[C@@H]3CCCCN3C(=O)C(=O)C(C)(C)COC(=O)/C=C/CCN(C)C(=O)[C@H](CC(C)C)N(C)C(=O)[C@@H]3CCCN3C(=O)[C@H](Cc3ccccc3)N(C)C(=O)[C@H](c3ccccc3)NC(=O)CCC(=O)Nc3cccc2c3)cc1OC	Jurkat T cells, wild type	[3H]-thymidine incorporation, inhibitor	3 h		EC50	48.5 nM
CCn1nccc1C1CCCN1S(=O)(=O)c1cc(C)c(C)cc1C (centres unmarked)	human monocytes	phagocytosis of anti-D RBCs	5 µM, lab-synthesized sample		inhibition	33.3 ± 6.4%
C[n+]1cccc2cc(/C=N/NC(=O)c3cc(C(=O)N/N=C/c4ccc5c(ccc[n+]5C)c4)ncn3)ccc21	myc22 MYC G4-DNA parallel	FRET melting	1 µM, K1 buffer, DNA 0.2 µM		ΔTm	3.2 ± 0.5 °C
O=S1(=O)CC2CCCCC2CS1 (centres unmarked)	MDA-MB-468	MTT	1.56 µM, 72 h		viability	28.8%
CCCCCCCCCCCCCCCC(=O)OCC(CSC[C@H](N)C(=O)N[C@@H](CO)C(=O)N[C@@H](CCCCN)C(=O)N[C@@H](CCCCN)C(=O)N[C@@H](CCCCN)C(=O)N[C@@H](CCCCN)C(=O)NCCCCCC(=O)N[C@@H](CCCCN)C(=O)N[C@@H](CC(C)C)C(=O)N[C@H](C(=O)N[C@@H](Cc1ccccc1)C(=O)N[C@@H](Cc1ccccc1)C(=O)N[C@@H](Cc1ccc2ccccc2c1)C(=O)O)C(C)C)OC(=O)CCCCCCCCCCCCCCC (some centres unmarked)	BV-2	RNA-seq, item: Cd86			gene expression	53.2 FPKM and 57.9 FPKM and 57.3 FPKM
CCOc1cncc(-c2ccc(NC(=O)C3(c4ccnc(NS(=O)(=O)C5CC5)n4)CCOCC3)nc2)n1	EFO-21	cell proliferation, CellTiter-Glo	72 h		IC50	10000 nM
COC1CN([C@H]2CC[C@H]([C@@]3(C)Oc4c(Cl)cc(C(=O)NCc5c(SC)cc(C)[nH]c5=O)c(C)c4O3)CC2)C1	T24	cell growth or viability, ATP luminescence	12 days		GI50	> 10000 nM
COc1ccccc1-c1ccncc1C(=O)Nc1nnc(OCc2ccc(Cl)cc2)s1	MDA-MB-231		0.1875 µM, single replicate		colony count	36 and 34 and 24 and 25
CN1CCCNC(=O)c2cccc(c2)C(=O)NCCCN(C)CCCNc2cccc3c2C(=O)c2cccc(c2C3=O)NCCC1	SAS	RNA-Seq, item: CBX5 mRNA	1 µM, 6 h	baseline: untreated cells	log2 fold change	0.637
CNS(=O)(=O)Nc1nccc(Cc2c(C)c3ccc(Oc4ncccc4F)cc3oc2=O)c1F	MHCC97H	cell viability	7 days		IC50	923 nM
CCN(CC)CC(=O)Nc1cccc(-n2cc(-c3ccc4ccc(-c5cn(-c6cccc(NC(=O)CN(CC)CC)c6)nn5)cc4c3)nn2)c1	RCC4	PCR angiogenesis array, item: THBS1	5 x IC50, 2 h, normoxia	baseline: untreated	fold regulation	1.04 fold
CSC(=S)N/N=C(\C)c1ccc(Nc2nnc(-c3ccc(Cl)cc3)c3ccccc23)cc1	MCF7	cell growth or viability, MTT	10 µM, 24 h		viability	7.17%
O=C(C[Se]C(=O)c1cc2ccccc2o1)Nc1cccc(C(F)(F)F)c1	NCI60 colon subpanel	cell growth	10 µM, 48 h, one-dose		mean growth percent	-29.3%
c1ccc2c(Cc3[nH]c4ccccc4c3Cc3c[nH]c4ccccc34)c[nH]c2c1	human monocytes		5 µM	baseline: DMSO	IL-1β induction	increased
COc1cc([C@@H]2O[C@@H](c3cc(OC)c(O[C@@H]4O[C@H](CO)[C@@H](O)[C@H](O)[C@H]4O)c(OC)c3)[C@H](CO)[C@H]2CO)cc(OC)c1O	3T3-L1 pre-adipocytes		5 to 20 µM, 48 h		glycerol release	increased
C[n+]1cc(/C=N/NC(=O)N/N=C/c2cc3ccccc3[n+](C)c2)cc2ccccc21	myc22 MYC G4-DNA parallel	FRET melting	1 µM, K1 buffer, DNA 0.2 µM, together with: ds26 10 µM		ΔTm	3.8 ± 0.1 °C
COc1cccc(OC)c1-c1cc(C(=O)NC2(C(=O)O)C3CC4CC(C3)CC2C4)nn1-c1ccc(C(=O)N(C)CCCN(C)C(=O)[C@H](CCCCNC(=O)[C@H](CC(C)C)NC(=O)C2OC2C(=O)O)NC(=O)CN2CCN(CC(=O)[O-])CCN(CC(=O)[O-])CCN(CC(=O)[O-])CC2)cc1C(C)C.[177Lu+3] (mixture of isomers)	HT-29		concentration not given, 30 min	baseline: added activity	surface-bound fraction	2.17 ± 0.09%
CO[C@@H]1[C@@H](OC(N)=O)[C@@H](O)[C@H](Oc2ccc3c(O)c(NC(=O)c4ccc(O)c(CC=C(C)C)c4)c(=O)oc3c2C)OC1(C)C	DLD-1 parental		50 µM, replicate 2		colony count	71
CN(C)c1ccc(-n2cc(COC(=O)[C@]3(C)C=C(C(=O)OC(C)(C)C)C(=O)CC3)nn2)cc1	HeLa	quantitative western blot	concentration not given, 10 (unit not given), together with: EGF		pRSK/tubulin ratio	0.176
O=C(O)C1OC(Oc2cccc(-c3oc4ccccc4c(=O)c3O)c2)C(O)C(O)C1O (centres unmarked)	MDCKII-UGT1A1/MRP2 cells	glucuronide efflux, substrate			Jmax	24 ± 9.7 pmol/mg/min

A few entries again:
Compound	tested on	test	conditions	scale	endpoint	result
Cc1ccc(-n2cc(CSc3nc4ccccc4n3Cc3cn(-c4ccc(C)cc4)nn3)nn2)cc1	MDA-MB-231	MTT	15.6 ppm		viability	24.3%
Cn1ncc(-c2ccc3c(=O)[nH]nc(CN)c3c2)c1-c1c(F)c(Cl)cc(OC2CC2)c1C#N	LN-18	cell viability, inhibitor, CellTiter-Glo	120 h, baseline-subtracted		IC50	20 nM
Cn1ncc2cc(-c3cncc(Cl)c3N3CCC4(CCNC4=O)CC3)ccc21	LS174T	gene expression, microarray, item: CMBL mRNA	concentration not given, 24 h	baseline: untreated cells	log2 fold change	2.81
